Measurements gathered from unrelated publications.
Numbered parts are unrelated; each lists some results of a single study.

Sample 1
Target: Ras GTPase-activating protein-binding protein 1, RRM domain (G3BP1, Homo sapiens, UniProt Q13283)
Sequence of UniProt Q13283 (whole entry, looked up): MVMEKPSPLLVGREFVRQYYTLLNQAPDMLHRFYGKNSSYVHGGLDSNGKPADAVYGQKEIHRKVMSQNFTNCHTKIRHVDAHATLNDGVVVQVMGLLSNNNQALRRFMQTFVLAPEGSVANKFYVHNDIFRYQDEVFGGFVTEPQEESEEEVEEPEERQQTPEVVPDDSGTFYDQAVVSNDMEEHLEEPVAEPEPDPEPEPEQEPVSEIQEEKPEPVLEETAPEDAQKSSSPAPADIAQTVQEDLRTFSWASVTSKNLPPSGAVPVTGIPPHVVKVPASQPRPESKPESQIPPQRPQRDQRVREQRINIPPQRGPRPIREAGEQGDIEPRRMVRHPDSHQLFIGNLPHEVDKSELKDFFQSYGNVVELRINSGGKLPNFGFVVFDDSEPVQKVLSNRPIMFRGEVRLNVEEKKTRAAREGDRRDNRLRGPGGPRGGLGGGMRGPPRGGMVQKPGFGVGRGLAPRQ
Method: RNA Bind-n-Seq
Form: RNA
Medium: in vitro
Tested at: 1 µM
Notes: whole 134-nt RNA, ends assumed
With: 150 mM KCl
Relative to: input library
Reading: higher = stronger binding
Endpoint: log2 enrichment
Constant ends, left off below: GGGAGUUCUACAGUCCGACGAUC … UGGAAUUCUCGGGUGUCAAGG
CCUCAAGUCCUGUGCUACACAUCGUAUGUACCGAAUCGGGAGGGGAGGGAGGGAAAGUAUUAUGUUACGCCGUUCGGAUCUGCACUUCCA: 0.887
CAAGUCCUGUGCUACACAUCGUAUGUACCGAAUCGGUUUGGAAAGGAAAAAAAGGAAAGUAUUAUGUUACGCCGUUCGGAUCUGCACUUC: -0.0883
UCCUGUGCUACACAUCGUAUGUACCGAAUCGGGAAAAAAAGGGUUUUUUUGGGAAAGGGAAAGUAUUAUGUUACGCCGUUCGGAUCUGCA: -0.0115
CAAGUCCUGUGCUACACAUCGUAUGUACCGAAUCGGAAAGGAAAAAGGUUUUUGGAAAGUAUUAUGUUACGCCGUUCGGAUCUGCACUUC: -0.201
UUGAUGUUAGUAAAUUUGGUGUAAUACGUGGGGCUUCCAUAUUUCAAAGUGGAAGCUUUCUUCUCUGAAGUCGAUAUAUGGUUUUGAAUU: -0.195
GUCCUGUGCUACACAUCGUAUGUACCGAAUCAAAUUUUUUUAAACCCAAAUUUUUAAAAAAGUAUUAUGUUACGCCGUUCGGAUCUGCAC: -0.723
GCCCUGUAAUCGUGGAGAUCCCGCACUUUGCCUCCCAUGGCCGUGGAGACCGCGAGCUCGUGGUUCUGAGGAGCGAAAACGGCUCCGUGU: -0.607
ACCAUGCAGGUGGGCAUCUUUGGGAAGUGGGGCAAGGGGGGGAUAGGGAGGGGGGUAACACUUUGGGAACAGGUCGUCCCAGGUCGUUUC: 0.776
CCUCAAGUCCUGUGCUACACAUCGUAUGUACCGAAUCGGCCGGGGCCGGCCGGAAAGUAUUAUGUUACGCCGUUCGGAUCUGCACUUCCA: -0.31
CAAGUCCUGUGCUACACAUCGUAUGUACCGAAUCGGGCCCGGGGCCCGGGCCCGGAAAGUAUUAUGUUACGCCGUUCGGAUCUGCACUUC: -0.722

Sample 2
Target: RNA binding protein fox-1 homolog 2, RRM domain, GST-SBP tag (RBFOX2, Homo sapiens, UniProt O43251-10, residues 100-194)
Method: RNA Bind-n-Seq
Form: RNA
Medium: in vitro
Tested at: 365 nM
Notes: natural RNA segment, single round, ends assumed
Relative to: no-protein control
Reading: higher = stronger binding
Endpoint: RBNS enrichment (R)
Constant ends, left off below: GGGAGUUCUACAGUCCGACGAUC … UGGAAUUCUCGGGUGCCAA
Construct (chain): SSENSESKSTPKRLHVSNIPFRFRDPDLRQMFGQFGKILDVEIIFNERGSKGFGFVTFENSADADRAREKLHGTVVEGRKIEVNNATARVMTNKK
AAAUUUCCAAAUUAAAAACGUAUAUGUGUACUCUUUUAAAAAGGAAUUUGAUAGUUCUUGUCAAAUGAGAAAAUUUAAAGGUAAGAGUUAUGGUUUGUCUUAUGCUGCAU: 0.893
GCUCCUGCAACAGUGCGGUCCCUGCCCGGAGAACUCAGGAGGCCUGCAGAAGAGAACUGAUUGGUGGUCGAAGCACCAUCUUCACAGAUGUUCAGGGGCAGUGGGGGGCU: 1.25
UUUAUUUUGUAACAUAUCAAUUAUAAAUAUUGUAUUUAUCUUUGAAAUUUUGUACAUUGCUUUUCCCACCUUUUCCUUUUUCUUCUUUCUUGUCUGUAUUGGUUUUUGAU: 2.54
GAGCCGGGUGUGAACUAUGGUUUAGAAGGUUCAAGUUUCCAAUUAAAGUCAUUGAAGAAAACUUGAAUGAGUGUCUUCUUUGUAUAUGGCCUCCCUCCAAUGUCUGUCUC: 0.503
ACAUGAAAACCAGCAGAAAGGCCCUGAGCUGCUGCAUAGCCCCAUCUGAUUUCUGCAGUUCCCGCCAGCCUCCAACACGGGGACUCUGCCGUAACUGGAAUCUUCAUAGG: 0.322
UUCCCUGACUUUACAUGGUGUUUUGUUAAUGCAAAUCCGGGAAGCAGGUGUGAUUGCUUUUUGCUCGUAGAUAUUAUCCUAAGUUGAAAUCCCCUAAAUCUCCCUUAGUA: 0.806
GACUGAUGGCCUCGCUCUCUGACUUCCGUGUUCAGAACCAUGUUCCAGCCUCAGGGCCACCUCAGCCUCCAGCAGCGAGCCCCACCCGUGAAGGAUGCCCAUCUCCACCA: 0.421
UAAGCUAAAGGGCACUGUUUAUUUCAUGAAACCUUUAAACAUGUCAAAAUGUUUAGUAUAAGAACACUUAGUCUACAUGCUGGGGUGCCUAGCUUACACAGAGCCUGGGU: 0.332
CUUAGAAACAAAAAGAGCUUUCCUUCUCCAGGAAUACUGAACAUGGGAGCUCUUGAAAUAUGUAGUAUUAAAAGUUGCAUUUGAAAUUCUUGACUUUCUUAUGGGCACUU: 0.395
CCCCAGGACUCCCGCCCACACUCCUUUGGGCUGCUGCCUGCCUGGCUAGCUCUGUCCAGAUAGGACCUGAGGAAGCCACCUUGUAGGGAGCCUUGUGUGUGGCCAGGGAC: 0.328
AGUGACUGCGGUCACCCCUUUAGUUCUCUGGGUGUAGACCACACCACCUCCCACUGGGCACCCCCCAACACGGUGUCCUGCCACCCAGCGCCUGGCUCCAGGAAAACACG: 0.451
UCAAAAUUCCACAGUAAUUAAAAUUUGAAUUUUUACCGAAUAUGAAAUUUCCAAAUUAAAAACGUAUAUGUGUACUCUUUUAAAAAGGAAUUUGAUAGUUCUUGUCAAAU: 0.637

Sample 3
Target: Sal-like protein 4, full length isoform B (SALL4, Homo sapiens, UniProt Q9UJQ4-2, residues 1-616)
Method: universal PBM
Form: double-stranded DNA, one strand shown
Medium: in vitro
Tested at: not given
Notes: 8-mer, flanks averaged, mean of replicates
Reading: higher = stronger binding
Endpoint: E-score
CCGGCAAA: -0.139
CCATAGTA: 0.0402
ACGCAAAC: -0.151
ACCTAAGG: -0.216
CCACTAAA: -0.00633
AATGCCTA: 0.0701
CCAATAGA: 0.15
ATCACAAC: 0.176
CGTTTCTC: -0.192
CGCGGTAC: -0.288
GCATAAAA: 0.263
CCTGCATA: 0.017
CACAAGAA: 0.0128
CAAACCTA: 0.0649
CGAACAAC: 0.212
GCCCTTCA: -0.149
ACTTTTAC: 0.233
CGTCTCCA: -0.0649
GAGATAGA: -0.0253
CCTAATCA: 0.159
CATCTCAC: -0.112

Sample 4
Target: Histone acetyltransferase KAT6A, winged helix 1, GST fusion (KAT6A, Homo sapiens, UniProt Q92794, residues 1-85)
Method: protein binding microarray
Form: double-stranded DNA, one strand shown
Medium: in vitro
Tested at: not given
Notes: 8-mer, flanks averaged, mean of 2 arrays, mostly near background
Relative to: not given
Reading: higher = stronger binding
Endpoint: E-score
Construct (chain): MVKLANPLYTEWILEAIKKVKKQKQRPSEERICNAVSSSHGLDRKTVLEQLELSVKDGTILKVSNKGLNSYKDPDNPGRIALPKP
ACCTTGTA: -0.14
GTAATTGA: 0.103
CTCGACAA: -0.176
AACGTCTT: -0.127
CAGATACC: -0.0817
ATTATTAA: -0.0148
GCCCCCCA: -0.153
ACCAACCA: -0.141
ACTGGTCA: -0.089
AAGGCGAC: -0.0151
GAGACGCA: 0.225
AGGTGTCA: -0.168
TCGCCTAA: 0.106
AGTTTTCA: -0.0617
CGCTGAAC: 0.162
ACAAACAA: -0.183
AAATCAAT: -0.171
GATCCAAA: -0.209
CCTTGCAA: -0.183

Other studies, line by line
PhoQ, residues 284 288 289 292 302 303 ALVSVA — fold induction (PhoP, residues 12 14 15 18 19 SYFRT (Escherichia coli, UniProt P23836); Sort-seq, measured: YFP reporter; E. coli; PhoQ-PhoP variant library, with: 10 µM Mg2+; relative to: high Mg2+ state, higher = stronger signaling): 1.87

A few entries again (sample 4):
CAGATACC: -0.0817
GAGACGCA: 0.225
AGTTTTCA: -0.0617
CTCGACAA: -0.176
GCCCCCCA: -0.153
TCGCCTAA: 0.106
AACGTCTT: -0.127
GTAATTGA: 0.103
